Results pooled from the literature.
Each line is one published result; not all experiments were run side by side. “And” joins repeats or separate records; there may be more than shown. ± gives the spread as reported.
Target: Cytochrome P450 3A4 (CYP3A4, Homo sapiens, UniProt P08684)
Sequence of UniProt P08684 (whole entry, looked up): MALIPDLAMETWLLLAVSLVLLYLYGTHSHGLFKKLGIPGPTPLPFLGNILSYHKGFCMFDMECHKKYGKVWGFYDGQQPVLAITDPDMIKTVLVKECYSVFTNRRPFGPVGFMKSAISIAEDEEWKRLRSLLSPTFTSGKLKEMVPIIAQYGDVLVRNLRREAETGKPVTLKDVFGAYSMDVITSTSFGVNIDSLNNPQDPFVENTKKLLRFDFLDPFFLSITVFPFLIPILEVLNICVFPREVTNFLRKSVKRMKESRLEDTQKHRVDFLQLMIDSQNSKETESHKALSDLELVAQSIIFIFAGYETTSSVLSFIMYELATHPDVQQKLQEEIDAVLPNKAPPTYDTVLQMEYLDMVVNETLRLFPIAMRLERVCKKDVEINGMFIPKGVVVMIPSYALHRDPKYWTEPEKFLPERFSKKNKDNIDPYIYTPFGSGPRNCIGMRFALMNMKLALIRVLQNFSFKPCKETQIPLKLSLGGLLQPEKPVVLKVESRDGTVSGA

| Structure (SMILES) | test | test system | setting | how to read | measurement | result |
| --- | --- | --- | --- | --- | --- | --- |
| CC(c1ccc(Br)cc1)N1CCCC(n2c(=O)[nH]c3cc(Cl)c(Cl)cc32)CC1 (centres unmarked) | – | – | 10 µM, 10 (unit not given) | – | inhibition | 11% |
| COc1ccc2cc(NC(=O)c3cc(-c4ccccn4)nc4ccccc34)ccc2c1 | substrate, LC-MS, refers to: hydroxylated metabolite M1 | baculosomes | – | – | Km | 2.5 µM |
| CC(=O)OC1(C(C)=O)CCC2C3C=C(CO)C4=CC(=O)CCC4(C)C3CCC21C (centres unmarked) | substrate | recombinant enzyme | 28 µM, 25 min | – | formation rate | 4.5 ± 0.3 pmol/min/pmol P450 |
| C[N+]1(CC(=O)OC2CCCCCCCCCCC2)CCCCC1 | enzyme activity, inhibitor | – | added: midazolam | – | IC50 | 3.28 µM |
| COc1ccc(F)cc1S(=O)(=O)Nc1cnc2c(c1)C(=O)NCCO2 | inhibitor | human liver microsomes | added: midazolam | – | IC50 | > 100 µM |
| O=C(NC(CSC(Cc1ccccc1)C(=O)NCCCc1cccnc1)Cc1ccc(-c2ccccc2)cc1)c1cccnc1 (centres unmarked) | enzyme activity, inhibitor | – | – | – | IC50 | 0.62 µM |
| Cc1ccc2nc(C)c(C(=O)NCc3ccc(C(F)(F)F)cc3)n2c1 | inhibitor | – | – | – | IC50 | 13 µM and 12.5 µM |
| Cc1c(NC(=O)c2ccc3c(c2)CC[C@@H]2C[C@@](O)(C(F)(F)F)CC[C@@]32Cc2ccccc2)ccc[n+]1[O-] | enzyme activity, reversible inhibitor | pooled human liver microsomes | added: midazolam 1'-hydroxylation | – | IC50 | > 100 µM |
| O=C1Cc2cc(CCN3CCN(C4=NS(=O)(=O)c5ccccc54)CC3)c(Cl)cc2N1 | – | human liver microsomes | 2 µM, pH 7.4, added: midazolam | – | inhibition | < 0% |
| CCC1CC2C(C)=CC3C(=O)CCCC3C=CC(C)=CC2C(=O)O1 (centres unmarked) | – | human liver microsomes | 10 µM, 10 min, pH 7.4, added: midazolam 0.1 µM | baseline: untreated | remaining activity | 113% |
| Cc1ccc(OCC(=O)N(Cc2cccs2)c2ccn[nH]2)cc1 | enzyme activity, inhibitor | human, liver microsomes | 10 µM, midazolam probe | – | inhibition | 57% |
| CNC(=O)Oc1cc(C)c([S+](C)[O-])c(C)c1 (centres unmarked) | – | human liver microsomes | 2 µM, pH 7.4, added: midazolam | – | inhibition | < 0% |
| C=C(C)[C@@H]1CCC(C(=O)O)=C[C@H]1c1c(O)cc(CCCCC)cc1O | – | human | 750 mg single dose | – | half-life | 24.6 h |
| CNC(=O)Oc1cc(C)c(S(C)(=O)=O)c(C)c1 | – | human liver microsomes | 10 µM, pH 7.4, added: midazolam | – | inhibition | < 0% |
| O=C(NC(CSC(Cc1ccccc1)C(=O)NCCCc1cccnc1)Cc1c[nH]c2ccccc12)c1cccnc1 (centres unmarked) | binding, absorbance | – | pH 7.4 | – | Kd | 0.032 µM and 0.032 to 0.037 µM |
| CC(C)(O)c1ccccc1CC[C@H](c1cccc(/C=C/c2ccc3ccc(Cl)cc3n2)c1)[S+]([O-])CC1(CC(=O)O)CC1 (some centres unmarked) | inhibitor | – | 2 µM, pH 7.4 | – | inhibition | < 0% |
| CCN(CC)CCNC(=O)c1c(C)[nH]c(C=C2C(=O)Nc3ccc(O)cc32)c1C | metabolite | recombinant enzyme | 10 min, enzyme 20 nM, added: sunitinib 0.05 to 50 µM, glutathione 5 mM | – | relative kcat/Km | 0.03 ± 0.01 |

A few entries again:
| Structure (SMILES) | test | test system | setting | how to read | measurement | result |
| --- | --- | --- | --- | --- | --- | --- |
| O=C1Cc2cc(CCN3CCN(C4=NS(=O)(=O)c5ccccc54)CC3)c(Cl)cc2N1 | – | human liver microsomes | 2 µM, pH 7.4, added: midazolam | – | inhibition | < 0% |
| CC(=O)OC1(C(C)=O)CCC2C3C=C(CO)C4=CC(=O)CCC4(C)C3CCC21C (centres unmarked) | substrate | recombinant enzyme | 28 µM, 25 min | – | formation rate | 4.5 ± 0.3 pmol/min/pmol P450 |
| Cc1ccc2nc(C)c(C(=O)NCc3ccc(C(F)(F)F)cc3)n2c1 | inhibitor | – | – | – | IC50 | 13 µM and 12.5 µM |
